Published values of several laboratories.
Parts stem from different laboratories: compare values within a part only.

Sample 1
Target: Fragile X messenger ribonucleoprotein 1, C-terminal low-complexity region (Fmr1, Mus musculus, UniProt P35922)
Method: RNA Bind-n-Seq
Form: RNA
Medium: in vitro
Concentration: 200 nM
Notes: whole 134-nt RNA, ends assumed
Added: 150 mM KCl
Baseline: input library
Direction: higher = stronger binding
Endpoint: log2 enrichment
Shared flanks, not repeated: GGGAGUUCUACAGUCCGACGAUC … UGGAAUUCUCGGGUGUCAAGG
UCCUGUGCUACACAUCGUAUGUACCGAAUCGGGGAAAGGGGUUUUUUUGGGGAAAGGGGAAAGUAUUAUGUUACGCCGUUCGGAUCUGCA: 0.723
CUCAGCAGACCCUGAAGGACACUUUGAGACACCAAUCUGGAUUGAGCGGGUGGUGAUAAUAGGGGCUGGAAAGCCAGCAGCUGUGGUACU: 0.429
GCAGGAAGUAAAAACAAAUGGAAAUGCUUCGGAUAGUGGCAGGGGUGGGGGUUGCUAAGGAAAGGGUGGGAUGGUAGUGGGUAAAGAGUU: 0.154
UGGACCCGGAGCUGAUGCAGAAGUUCAGCUGCCUGGGCACCACCGACAAGGACGUGCUCAUCUCCGAGUUCCAGAGGCUGCUCGGCUUCC: -0.582
GUCCUGUGCUACACAUCGUAUGUACCGAAUCAAAUUUAAAUUUUUUUAAACCCCCAAAAAAGUAUUAUGUUACGCCGUUCGGAUCUGCAC: 0.142

Sample 2
Target: Sal-like protein 4, full length isoform A (SALL4, Homo sapiens, UniProt Q9UJQ4, residues 1-1053)
Chain of UniProt Q9UJQ4 (whole entry, looked up): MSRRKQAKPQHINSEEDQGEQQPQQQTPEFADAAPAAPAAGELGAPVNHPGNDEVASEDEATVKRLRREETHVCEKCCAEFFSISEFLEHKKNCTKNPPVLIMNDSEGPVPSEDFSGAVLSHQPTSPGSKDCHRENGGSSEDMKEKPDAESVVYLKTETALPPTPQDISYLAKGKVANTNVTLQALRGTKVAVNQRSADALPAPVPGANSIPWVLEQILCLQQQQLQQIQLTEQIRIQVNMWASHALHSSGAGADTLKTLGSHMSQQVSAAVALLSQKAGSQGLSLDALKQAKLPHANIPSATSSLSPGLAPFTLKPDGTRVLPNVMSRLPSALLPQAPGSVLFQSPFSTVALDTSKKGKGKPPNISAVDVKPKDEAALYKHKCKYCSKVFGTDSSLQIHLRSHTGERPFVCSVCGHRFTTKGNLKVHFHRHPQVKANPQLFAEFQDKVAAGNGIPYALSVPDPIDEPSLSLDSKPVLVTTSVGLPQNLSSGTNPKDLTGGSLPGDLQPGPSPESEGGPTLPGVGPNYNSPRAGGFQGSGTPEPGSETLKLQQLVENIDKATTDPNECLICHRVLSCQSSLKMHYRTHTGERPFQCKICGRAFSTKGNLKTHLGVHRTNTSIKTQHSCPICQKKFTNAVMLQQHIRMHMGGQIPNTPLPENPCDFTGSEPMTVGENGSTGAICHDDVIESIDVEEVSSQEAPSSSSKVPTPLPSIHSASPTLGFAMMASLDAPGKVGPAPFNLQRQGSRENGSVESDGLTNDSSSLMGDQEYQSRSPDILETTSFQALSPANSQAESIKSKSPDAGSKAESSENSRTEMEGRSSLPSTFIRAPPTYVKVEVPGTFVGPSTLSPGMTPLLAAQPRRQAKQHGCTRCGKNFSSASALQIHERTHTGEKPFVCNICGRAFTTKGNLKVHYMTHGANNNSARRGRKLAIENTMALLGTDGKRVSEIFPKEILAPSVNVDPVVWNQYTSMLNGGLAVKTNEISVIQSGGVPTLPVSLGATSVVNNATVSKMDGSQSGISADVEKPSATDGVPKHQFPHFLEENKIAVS
Method: universal PBM
Form: double-stranded DNA, one strand shown
Medium: in vitro
Concentration: 600 nM
Notes: 8-mer, flanks averaged, mean of replicates
Direction: higher = stronger binding
Endpoint: E-score
ACGGTAGC: -0.147
CCGGCCCC: -0.446
ATTACTAG: 0.233
CTCGGGAA: -0.231
GCCTAGCA: -0.139
CGACTCGC: -0.127
AGTAAAGG: 0.0321
AACCTCAC: -0.0214
AGGGCAAG: -0.0968
TCACATGA: 0.138
GGGCTAAA: -0.13
AAGCTTTA: 0.153
CCTCGACG: -0.352

Sample 3
Target: RING finger protein unkempt homolog, zinc fingers 1-6, GST-SBP tag (UNK, Homo sapiens, UniProt Q9C0B0, residues 30-357)
Chain of UniProt Q9C0B0 (30-357, looked up): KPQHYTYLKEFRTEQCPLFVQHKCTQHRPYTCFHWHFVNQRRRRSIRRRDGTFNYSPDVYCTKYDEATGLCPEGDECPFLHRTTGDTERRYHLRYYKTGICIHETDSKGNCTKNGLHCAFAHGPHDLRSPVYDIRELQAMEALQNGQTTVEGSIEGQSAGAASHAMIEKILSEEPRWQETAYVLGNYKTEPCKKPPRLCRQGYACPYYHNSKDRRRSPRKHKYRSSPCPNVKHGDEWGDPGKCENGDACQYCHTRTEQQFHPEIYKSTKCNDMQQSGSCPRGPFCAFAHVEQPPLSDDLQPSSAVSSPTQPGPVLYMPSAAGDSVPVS
Method: RNA Bind-n-Seq
Form: RNA
Medium: in vitro
Concentration: not given
Notes: RNA with constant flanks, human and mouse sites, ends assumed
Baseline: input RNA pool
Direction: higher = stronger binding
Endpoint: bound/input enrichment
Shared flanks, not repeated: GGGAGUUCUACAGUCCGACGAUC … CAACAGAGGAUUGAGCAUCA
GAUGUUAGAGAUGUGGUUGGGCGGCCUAUAGAUCCAAGAGAAGGUCCUGGACGGCCUCCACUAGAUGGUAGGGAUCAUUUUGGAAGACCUCCUGUAGAUAUAAGAGAGAAUCUUGUGAGG: 3.88 ratio
GCAAUCCUACAGCUGUGGUCAUGGGAAAUCACCUACAGCAUGUUAAAGUCCUCUAGUCAUCAUCUCGUCACCUGAAAUGGAAGUCCUUUUUCCCUCACCCUCCACUUCUUUCCAAAGGAG: 0.17 ratio
GAAAAAUACUUCCAAUUCCAAGAAGAGGGCAAGGAAGGAGAGAACAGGGCAGUUAUCCAUUAUAGGGAUGAUGAGACCAUGUAUGUUGAGUCUAAAAAGGACAGAGUCACAGUAGUCUUC: 0.423 ratio
GAUAGGAAAAACUUGUUGGAGACCCGAUUGCACAUCACUGGCAGAGAACUGAGGUCCAAAAUAGCUGAAACCUUUGGACUUCAAGAAAAUUAUAUCAAAAUUGUCAUAAAUAAGAAGCAA: 0.695 ratio
AAGAAAUUAUUAAACAAAACAAGGGGGGCAAUAAAUGUAUAUAACAUUAAUAAUGUCGCGUAGGUGUAGGUUCCUGGAUGCAUUUGGAUGUACAGACUGACUGGGGGACUGUAUUGCGAU: 1.24 ratio

Sample 4
Target: Histone acetyltransferase KAT6A, winged helix 1, GST fusion (KAT6A, Homo sapiens, UniProt Q92794, residues 1-85)
Method: protein binding microarray
Form: double-stranded DNA, one strand shown
Medium: in vitro
Concentration: not given
Notes: 8-mer, flanks averaged, mean of 2 arrays, mostly near background
Baseline: not given
Direction: higher = stronger binding
Endpoint: E-score
Construct (chain): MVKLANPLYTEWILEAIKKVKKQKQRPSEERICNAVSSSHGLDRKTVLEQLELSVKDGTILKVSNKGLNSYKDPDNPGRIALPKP
AACATAAT: -0.0428
AACTCCAA: -0.14
ATTGCACG: -0.00871
CAGGGCCG: 0.312
CCTAACTC: -0.123
CGTCGGAA: 0.328
ATACGCGC: 0.368
